Assay results from different studies.
Each numbered part is a random draw from the data of one study; scales do not carry over between parts.
Sequence of UniProt P51668 (whole entry, looked up): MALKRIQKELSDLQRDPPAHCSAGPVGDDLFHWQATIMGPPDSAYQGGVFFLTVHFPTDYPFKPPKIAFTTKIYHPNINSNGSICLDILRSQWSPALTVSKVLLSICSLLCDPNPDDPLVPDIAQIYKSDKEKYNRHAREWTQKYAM
Sequence of UniProt Q9C0C9 (whole entry, looked up): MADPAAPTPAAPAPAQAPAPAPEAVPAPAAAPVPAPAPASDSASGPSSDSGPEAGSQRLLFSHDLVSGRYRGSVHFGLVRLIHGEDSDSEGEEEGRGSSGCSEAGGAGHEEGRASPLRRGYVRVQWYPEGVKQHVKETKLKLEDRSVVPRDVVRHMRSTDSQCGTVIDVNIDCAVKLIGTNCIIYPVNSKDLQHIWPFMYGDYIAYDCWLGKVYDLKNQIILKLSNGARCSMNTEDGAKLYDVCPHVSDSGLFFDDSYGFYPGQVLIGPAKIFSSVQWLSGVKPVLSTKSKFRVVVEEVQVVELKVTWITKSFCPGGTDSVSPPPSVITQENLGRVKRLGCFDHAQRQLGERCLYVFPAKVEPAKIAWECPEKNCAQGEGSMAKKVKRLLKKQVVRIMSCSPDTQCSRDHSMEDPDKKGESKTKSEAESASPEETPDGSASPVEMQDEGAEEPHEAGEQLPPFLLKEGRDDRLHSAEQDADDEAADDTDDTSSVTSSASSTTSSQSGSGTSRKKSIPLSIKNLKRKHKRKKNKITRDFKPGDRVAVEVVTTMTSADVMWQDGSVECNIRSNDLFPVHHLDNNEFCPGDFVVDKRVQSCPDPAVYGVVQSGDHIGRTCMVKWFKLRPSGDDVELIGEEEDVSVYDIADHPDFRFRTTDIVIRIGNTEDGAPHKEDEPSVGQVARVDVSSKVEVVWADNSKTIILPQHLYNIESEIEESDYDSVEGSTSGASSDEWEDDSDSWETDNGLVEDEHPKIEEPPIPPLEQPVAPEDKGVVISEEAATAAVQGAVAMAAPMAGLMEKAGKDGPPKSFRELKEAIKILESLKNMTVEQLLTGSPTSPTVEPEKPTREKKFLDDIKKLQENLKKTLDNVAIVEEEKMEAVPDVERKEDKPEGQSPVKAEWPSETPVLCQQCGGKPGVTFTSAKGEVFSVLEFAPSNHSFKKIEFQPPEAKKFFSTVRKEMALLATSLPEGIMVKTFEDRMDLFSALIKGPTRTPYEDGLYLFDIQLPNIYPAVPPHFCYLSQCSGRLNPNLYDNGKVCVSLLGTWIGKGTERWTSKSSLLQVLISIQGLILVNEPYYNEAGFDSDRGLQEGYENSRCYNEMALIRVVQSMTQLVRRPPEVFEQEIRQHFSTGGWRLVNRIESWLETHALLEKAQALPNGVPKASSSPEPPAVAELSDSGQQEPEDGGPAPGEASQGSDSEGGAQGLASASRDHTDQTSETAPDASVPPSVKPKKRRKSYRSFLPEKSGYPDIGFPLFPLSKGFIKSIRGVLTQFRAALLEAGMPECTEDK
Sequence of UniProt Q9Y385 (whole entry, looked up): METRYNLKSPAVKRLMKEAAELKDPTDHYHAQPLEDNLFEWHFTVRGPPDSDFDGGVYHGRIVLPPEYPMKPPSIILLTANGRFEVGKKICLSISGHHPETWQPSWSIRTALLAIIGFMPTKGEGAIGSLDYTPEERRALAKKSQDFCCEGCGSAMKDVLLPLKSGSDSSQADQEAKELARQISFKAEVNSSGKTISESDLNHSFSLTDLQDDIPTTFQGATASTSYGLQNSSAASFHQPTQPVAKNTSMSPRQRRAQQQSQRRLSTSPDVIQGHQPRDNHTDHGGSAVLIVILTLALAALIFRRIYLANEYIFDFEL
Sequence of UniProt Q9H832 (whole entry, looked up): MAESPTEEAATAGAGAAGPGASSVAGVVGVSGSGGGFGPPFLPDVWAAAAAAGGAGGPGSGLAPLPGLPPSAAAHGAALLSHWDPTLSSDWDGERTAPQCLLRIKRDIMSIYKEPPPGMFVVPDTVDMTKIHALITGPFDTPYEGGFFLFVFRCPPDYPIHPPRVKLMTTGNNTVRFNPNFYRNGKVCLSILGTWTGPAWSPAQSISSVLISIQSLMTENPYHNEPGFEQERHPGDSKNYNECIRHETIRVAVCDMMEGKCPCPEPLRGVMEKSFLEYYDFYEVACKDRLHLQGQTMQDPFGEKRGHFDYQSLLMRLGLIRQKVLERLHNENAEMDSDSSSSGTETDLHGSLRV
Sequence of UniProt P61081 (whole entry, looked up): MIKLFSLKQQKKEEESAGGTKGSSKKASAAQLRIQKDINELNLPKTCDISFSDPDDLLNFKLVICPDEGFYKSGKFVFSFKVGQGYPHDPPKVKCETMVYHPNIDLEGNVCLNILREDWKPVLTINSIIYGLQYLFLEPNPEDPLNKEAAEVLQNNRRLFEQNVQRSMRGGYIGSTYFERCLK
Sequence of UniProt P68036 (whole entry, looked up): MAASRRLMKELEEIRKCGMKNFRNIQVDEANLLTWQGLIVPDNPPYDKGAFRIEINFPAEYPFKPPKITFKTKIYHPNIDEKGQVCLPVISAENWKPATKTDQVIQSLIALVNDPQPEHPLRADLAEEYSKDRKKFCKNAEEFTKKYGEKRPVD
Sequence of UniProt O00762 (whole entry, looked up): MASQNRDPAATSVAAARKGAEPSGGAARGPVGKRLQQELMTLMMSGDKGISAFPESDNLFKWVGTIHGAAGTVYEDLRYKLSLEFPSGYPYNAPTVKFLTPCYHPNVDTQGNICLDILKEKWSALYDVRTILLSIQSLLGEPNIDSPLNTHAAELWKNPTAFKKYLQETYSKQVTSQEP
Sequence of UniProt P63146 (whole entry, looked up): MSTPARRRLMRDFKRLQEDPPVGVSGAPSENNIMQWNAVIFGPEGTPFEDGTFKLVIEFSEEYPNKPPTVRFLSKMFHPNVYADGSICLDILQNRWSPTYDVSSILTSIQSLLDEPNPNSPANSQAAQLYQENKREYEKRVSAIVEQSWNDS

Study 1
Target: Prothrombin, mature alpha-thrombin (F2, Homo sapiens, UniProt P00734)
Method: aptamer microarray, sandwich
Form: DNA with 2'F-ANA
Sample: in vitro
Concentration: 200 nM
Notes: whole 15-mer aptamer, many near background
Added: Cy3 exosite-II aptamer, 400 nM
Direction: higher = stronger binding
Measurement: mean fluorescence intensity
Oligonucleotide: GGTTGGTGTGGTTGG
2'F-ANA at 1 3 5 6 8 12 15: 137 a.u.
2'F-ANA at 1 3 4 6 8 11 12 14: 116 a.u.
2'F-ANA at 2 3 4 8 9 10 13 14: 195 a.u.
2'F-ANA at 1 2 3 5 6 8 9 12 13: 87.2 a.u.
2'F-ANA at 1 2 4 5 7 8 9 11 15: 66.7 a.u.
2'F-ANA at 1 2 3 4 6 7 8 10 15: 57.8 a.u.
2'F-ANA at 1 2 3 4 6 7 8 11 12 14: 78.3 a.u.
2'F-ANA at 6 7 8 9 10 14 15: 117 a.u.
2'F-ANA at 4 6 9 12 13 14: 79.3 a.u.
2'F-ANA at 6 7 9 11 13 14 15: 155 a.u.
2'F-ANA at 1 3 4 5 6 10 11 14: 46.2 a.u.
2'F-ANA at 1 2 3 4 5 6 9 11 12 14: 76.7 a.u.
2'F-ANA at 1 3 4 5 6 10: 47.1 a.u.
2'F-ANA at 3 5 7 8 13 14 15: 80.9 a.u.
2'F-ANA at 1 2 3 4 5 6 7 9 11 15: 51.3 a.u.
2'F-ANA at 2 3 6 8 12 14: 428 a.u.
2'F-ANA at 8 11 14: 199 a.u.
2'F-ANA at 1 4 9 10 13 14 15: 43.9 a.u.
2'F-ANA at 1 7 9 10 12 13 14: 47.7 a.u.
2'F-ANA at 3 4 5 6 8 10 11 12 14: 54.7 a.u.
2'F-ANA at 1 2 4 5 12 13 14: 48.7 a.u.
2'F-ANA at 2 3 4 6 9 10 11: 190 a.u.
2'F-ANA at 2 3 4 6 7 8 10 12 13 14 15: 162 a.u.

Study 2
Target: RNA binding protein fox-1 homolog 2, RRM domain, GST-SBP tag (RBFOX2, Homo sapiens, UniProt O43251-10, residues 100-194)
Method: RNA Bind-n-Seq
Form: RNA
Sample: in vitro
Concentration: 365 nM
Notes: natural RNA segment, single round, ends assumed
Baseline: no-protein control
Direction: higher = stronger binding
Measurement: RBNS enrichment (R)
All sequences stand within: GGGAGUUCUACAGUCCGACGAUC … UGGAAUUCUCGGGUGCCAA
Target sequence (chain): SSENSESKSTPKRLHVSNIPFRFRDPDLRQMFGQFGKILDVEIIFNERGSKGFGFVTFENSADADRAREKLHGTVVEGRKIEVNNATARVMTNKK
UGCAGCUGGGCCUCUCUAUACCCCUGGAUGAACAGCUUGCUCAGGCCCCAGGGUGGCUGCCUCGGCCCUCCCAGCUCUUACACUCAGCUCCAGUGGCUUCUCCUUUCUGU: 0.502
UGUCAGUCUCAUGACAGUUUGUUGGUUGUGCCAAACACUUUAUUUGGGAAAGGAAAGCCCAGAUUUGAAUGGGUCUUUCCCCUGGGCCUUAUCCUAUAGAGGCAUUUGUA: 0.312
GGCCAUAGGGUGUCCUUGGGUACAUCCAGGAGUCUUCAUUGCUUCUGUUAUUACCCCGUCUCCUCUGCCAUUUUCUACAGCUUGCUGAGUUGUCAUUCCUUUGCAACAUU: 0.469
UCGUGAAAAAUGUGUUCACACUGUGGGAGGCAAAGCUUGGUCUGAGAAUGUAACUGUUGAUGUGAGCAGCAGAAAUCUGCUUAUAGAUAACAUACUGUUAAUAUUUAAUU: 0.535
GCAUCAUUCCAGCCAGACUUGCUGAAAAUCUACUGGUGAGGCAAAUAUAAUAUAUAUAAAUAUGCUACAUAUAUAUUUAUAAAAUUUCUAGUGGGAGUUCUAUAUAAAUG: 3.13
UGCCAUCCUUGUCUCUGCUUCCUUGGGGAGGGCUGCAGGGUGGCACAGCAGCCUGGCGUCAGUGACUGGUACCCCUUCUCCUGUGUCCAGUGCAGCCAUGGCAUGCCAGA: 1.53
ACAAUGACACUCAGCGGUCAUGUCUGGACAUGAGUGCCCAGGGAAUAUGCCCAAGCUAUGCCUUGUCCUCUUGUCCUGUUUGCAUUUCACUGGGAGCUUGCACUAUGCAG: 0.552
AGGUCGGCAGACAUGCCAACCUUGGGCUAUUUGAGCUGGAGAAGCUAUGUGAUGCUAGCCGGUGGCUUUCUGGGCUAGGCCCCAGUUUGAGGCUCCCCUGGGAACUAGAG: 0.615

Study 3
Target: Interferon regulatory factor 7, full length, phosphomimetic (IRF7, Homo sapiens, UniProt Q92985, residues 1-503, S101K/S471D/S472D/S475D/S476D/S477D/S483D/S484D/S487D)
Sequence of UniProt Q92985 (whole entry, unmodified, looked up): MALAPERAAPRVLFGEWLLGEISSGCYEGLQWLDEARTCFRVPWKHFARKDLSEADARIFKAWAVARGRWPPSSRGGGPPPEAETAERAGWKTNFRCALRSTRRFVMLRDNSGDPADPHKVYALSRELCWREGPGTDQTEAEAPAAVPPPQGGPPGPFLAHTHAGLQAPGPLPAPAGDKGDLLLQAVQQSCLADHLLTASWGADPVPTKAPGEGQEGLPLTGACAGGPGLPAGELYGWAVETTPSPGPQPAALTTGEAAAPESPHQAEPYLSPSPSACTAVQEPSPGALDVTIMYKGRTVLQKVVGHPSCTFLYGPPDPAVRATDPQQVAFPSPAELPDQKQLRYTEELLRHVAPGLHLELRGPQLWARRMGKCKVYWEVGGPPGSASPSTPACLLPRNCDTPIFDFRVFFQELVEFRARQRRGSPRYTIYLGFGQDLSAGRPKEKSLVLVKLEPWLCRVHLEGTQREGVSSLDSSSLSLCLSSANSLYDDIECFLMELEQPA
Method: protein-binding microarray
Form: double-stranded DNA, one strand shown
Sample: in vitro
Concentration: 250 nM
Notes: 60-bp whole probe
Added: salmon DNA 0.4 mg/ml
Baseline: random background probes
Direction: higher = stronger binding
Measurement: log fluorescence
All sequences stand within: GCCTAGCAC … GTCTTGATTCGCTTGACGCTGCTG
GACGGACTGGACAATCGGGACGTGCTA: -0.749 z-score
TTAGGACAGGACACTGGGTTAGTGCTA: -0.462 z-score
GACGGTATCCTTTTCATGACGTGCTAG: 0.641 z-score
TTAGGACTGGACTATCGGTCAGTGCTA: -0.353 z-score
GACGATTTCGACTATCGGGACGTGCTA: 0.633 z-score
GACGGACGGGGGTATCGGGACGTGCTA: 1.15 z-score
TCAGAATTGAAAATTAGTACTGTGCTA: -0.157 z-score
AACGAACTGGGGACTGGAGACGTGCTA: -0.552 z-score
GACGGTTTCCTTTTCCTGAAGTGCTAG: 7.24 z-score
GACAATTTCAGTATCGAGACGTGCTAG: 0.501 z-score
TCATATCCCTAATCTCAGACTGTGCTA: 1.04 z-score
GACGATTCCAGTTTCGAAACGTGCTAG: 6.44 z-score
GACGGACTGCTACTGCTGGCGTGCTAG: -1.09 z-score
TTAGGTTTCGACGTTCGGTTAGTGCTA: 4.02 z-score
TTCATTATTGTTTCCTTCCTGTGCTAG: 0.899 z-score
CTTTTTCCCTATTATATATATGTGCTA: 5.55 z-score
GACGGACTGCTACTGCTGTCGTGCTAG: -0.639 z-score

Study 4
Molecule: QLQDEEDDSLCRICMDAVIDCVLLECGHMVTCTKCGKRMSECPICRQYVVRAVHVF (RNF34 RING domain (UniProt Q969K3))
Method: yeast two-hybrid
Sample: yeast
Notes: mostly zero background
Baseline: not given
Direction: higher = stronger interaction
Measurement: lacZ reporter activity
UBE2J1 UBC core domain (UniProt Q9Y385): 0
UBE2M UBC core domain (UniProt P61081): 0
UBE2L3 UBC core domain (UniProt P68036): 0
UBE2O UBC core domain (UniProt Q9C0C9): 0
UBE2Z UBC core domain (UniProt Q9H832): 0
UBE2I UBC core domain (UniProt P63279): 0
UBE2D1 UBC core domain (UniProt P51668): 0
UBE2B UBC core domain (UniProt P63146): 0
UBE2C UBC core domain (UniProt O00762): 0

Excerpt of the above (study 1):
2'F-ANA at 3 4 5 6 8 10 11 12 14: 54.7 a.u.
2'F-ANA at 1 2 4 5 12 13 14: 48.7 a.u.
2'F-ANA at 2 3 4 6 9 10 11: 190 a.u.
